{"data": "Literature values, collected from citations in different studies", "organism": "Escherichia coli"}
{"SMILES": "CC1(C)S[C@@H]2[C@H](NC(=O)[C@H](N)c3ccccc3)C(=O)N2[C@H]1C(=O)O", "system": "clinical isolate RKI-No_867/14", "MIC [mg/L]": "> 16"}
{"SMILES": "CC1(C)S[C@@H]2[C@H](NC(=O)[C@H](N)c3ccc(O)cc3)C(=O)N2[C@H]1C(=O)O", "MIC [mg/L]": 32}
{"SMILES": "CCc1c(Cl)c(O)c(Cl)c(O)c1C(=O)O[C@H]1[C@H](O)[C@H](OC)[C@H](OC/C2=C\\C=C\\C[C@H](O)/C(C)=C/[C@H](CC)[C@@H](O[C@@H]3OC(C)(C)[C@@H](OC(=O)C(C)C)[C@H](O)[C@@H]3O)/C(C)=C/C(C)=C/C[C@@H]([C@@H](C)O)OC2=O)O[C@@H]1C", "system": "ATCC 25922", "MIC [mg/L]": "> 128"}
{"SMILES": "NC[C@H]1O[C@H](O[C@H]2[C@H](O)[C@@H](O[C@H]3O[C@H](CO)[C@@H](O)[C@H](N)[C@H]3O)[C@H](N)C[C@@H]2N)[C@H](N)C[C@@H]1O", "system": "ATCC 25922", "MIC [mg/L]": "0.25 to 1"}
{"SMILES": "FC(F)(F)c1ccc(Oc2ccc(-c3noc(-c4ccc5[nH]ccc5c4)n3)cc2)cc1", "system": "ATCC 25922", "MIC [mg/L]": "> 128"}
{"SMILES": "CCC[C@@H]1C[C@@H](C(=O)N[C@@H]([C@H]2O[C@H](SC)[C@H](O)[C@@H](O)[C@H]2O)[C@@H](C)O)N(C)C1", "MIC [mg/L]": 512}
{"SMILES": "CNC(C)C1CCC(N)C(OC2C(N)CC(N)C(OC3OCC(C)(O)C(NC)C3O)C2O)O1 (stereo not shown)", "system": "clinical isolate RKI-No_525/16", "MIC [mg/L]": "≤ 0.5"}
{"SMILES": "C[C@H]1COc2c(N3CCN(C)CC3)c(F)cc3c(=O)c(C(=O)O)cn1c23", "system": "ATCC BAA-2469", "MIC [mg/L]": 16}
{"SMILES": "C[C@H]1c2cccc(O)c2C(=O)C2=C(O)[C@]3(O)C(=O)C(C(N)=O)=C(O)[C@@H](N(C)C)[C@@H]3[C@@H](O)[C@@H]21", "MIC [mg/L]": 32}
{"SMILES": "CC(C)(O/N=C(\\C(=O)N[C@@H]1C(=O)N2C(C(=O)[O-])=C(C[n+]3ccccc3)CS[C@H]12)c1csc(N)n1)C(=O)O", "system": "ATCC BAA-2469", "MIC [mg/L]": "> 2050"}
{"SMILES": "NC[C@H]1O[C@H](O[C@H]2[C@H](O)[C@@H](O[C@H]3O[C@H](CO)[C@@H](O)[C@H](N)[C@H]3O)[C@H](N)C[C@@H]2N)[C@H](O)[C@@H](O)[C@@H]1O", "MIC [mg/L]": 2}
{"SMILES": "CC[C@H](C)CCCCC(=O)N[C@@H](CCN)C(=O)N[C@H](C(=O)N[C@@H](CCN)C(=O)N[C@H]1CCNC(=O)[C@H]([C@@H](C)O)NC(=O)[C@H](CCN)NC(=O)[C@H](CCN)NC(=O)[C@H](CC(C)C)NC(=O)[C@@H](CC(C)C)NC(=O)[C@H](CCN)NC1=O)[C@@H](C)O", "system": "ATCC 25922", "MIC [mg/L]": "0.25 to 1"}
{"SMILES": "CC(C)(O/N=C(\\C(=O)N[C@@H]1C(=O)N2C(C(=O)[O-])=C(C[n+]3ccccc3)CS[C@H]12)c1csc(N)n1)C(=O)O", "system": "clinical isolate RKI-No_582/16", "MIC [mg/L]": 4}
{"note": "A few entries again:"}
{"SMILES": "NC[C@H]1O[C@H](O[C@H]2[C@H](O)[C@@H](O[C@H]3O[C@H](CO)[C@@H](O)[C@H](N)[C@H]3O)[C@H](N)C[C@@H]2N)[C@H](N)C[C@@H]1O", "system": "ATCC 25922", "MIC [mg/L]": "0.25 to 1"}
